{"data": "Assay results from different studies", "note": "Each numbered part is a random draw from the data of one study; scales do not carry over between parts.", "sequence of UniProt O75676 (whole entry, looked up)": "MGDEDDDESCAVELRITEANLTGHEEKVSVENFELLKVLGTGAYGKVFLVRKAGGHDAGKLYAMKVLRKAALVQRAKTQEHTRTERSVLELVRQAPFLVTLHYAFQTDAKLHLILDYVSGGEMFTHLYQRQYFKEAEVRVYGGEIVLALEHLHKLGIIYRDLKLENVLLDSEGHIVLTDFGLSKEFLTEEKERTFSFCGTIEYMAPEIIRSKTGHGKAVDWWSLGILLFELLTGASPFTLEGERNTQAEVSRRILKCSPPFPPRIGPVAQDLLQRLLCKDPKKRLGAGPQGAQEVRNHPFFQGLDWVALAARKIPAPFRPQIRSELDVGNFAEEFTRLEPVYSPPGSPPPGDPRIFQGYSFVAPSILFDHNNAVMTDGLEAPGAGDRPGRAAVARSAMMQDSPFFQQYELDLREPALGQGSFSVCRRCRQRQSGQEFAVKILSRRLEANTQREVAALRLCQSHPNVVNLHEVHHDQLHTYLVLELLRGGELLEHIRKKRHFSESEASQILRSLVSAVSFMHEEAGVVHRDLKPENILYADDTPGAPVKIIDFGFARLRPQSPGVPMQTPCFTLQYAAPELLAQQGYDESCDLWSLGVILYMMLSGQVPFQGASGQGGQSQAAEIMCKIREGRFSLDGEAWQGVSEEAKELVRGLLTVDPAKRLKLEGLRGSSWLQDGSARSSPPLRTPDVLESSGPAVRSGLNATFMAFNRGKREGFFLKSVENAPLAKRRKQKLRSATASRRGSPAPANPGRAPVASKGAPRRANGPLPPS", "sequence of UniProt P00519 (whole entry, unmodified, looked up)": "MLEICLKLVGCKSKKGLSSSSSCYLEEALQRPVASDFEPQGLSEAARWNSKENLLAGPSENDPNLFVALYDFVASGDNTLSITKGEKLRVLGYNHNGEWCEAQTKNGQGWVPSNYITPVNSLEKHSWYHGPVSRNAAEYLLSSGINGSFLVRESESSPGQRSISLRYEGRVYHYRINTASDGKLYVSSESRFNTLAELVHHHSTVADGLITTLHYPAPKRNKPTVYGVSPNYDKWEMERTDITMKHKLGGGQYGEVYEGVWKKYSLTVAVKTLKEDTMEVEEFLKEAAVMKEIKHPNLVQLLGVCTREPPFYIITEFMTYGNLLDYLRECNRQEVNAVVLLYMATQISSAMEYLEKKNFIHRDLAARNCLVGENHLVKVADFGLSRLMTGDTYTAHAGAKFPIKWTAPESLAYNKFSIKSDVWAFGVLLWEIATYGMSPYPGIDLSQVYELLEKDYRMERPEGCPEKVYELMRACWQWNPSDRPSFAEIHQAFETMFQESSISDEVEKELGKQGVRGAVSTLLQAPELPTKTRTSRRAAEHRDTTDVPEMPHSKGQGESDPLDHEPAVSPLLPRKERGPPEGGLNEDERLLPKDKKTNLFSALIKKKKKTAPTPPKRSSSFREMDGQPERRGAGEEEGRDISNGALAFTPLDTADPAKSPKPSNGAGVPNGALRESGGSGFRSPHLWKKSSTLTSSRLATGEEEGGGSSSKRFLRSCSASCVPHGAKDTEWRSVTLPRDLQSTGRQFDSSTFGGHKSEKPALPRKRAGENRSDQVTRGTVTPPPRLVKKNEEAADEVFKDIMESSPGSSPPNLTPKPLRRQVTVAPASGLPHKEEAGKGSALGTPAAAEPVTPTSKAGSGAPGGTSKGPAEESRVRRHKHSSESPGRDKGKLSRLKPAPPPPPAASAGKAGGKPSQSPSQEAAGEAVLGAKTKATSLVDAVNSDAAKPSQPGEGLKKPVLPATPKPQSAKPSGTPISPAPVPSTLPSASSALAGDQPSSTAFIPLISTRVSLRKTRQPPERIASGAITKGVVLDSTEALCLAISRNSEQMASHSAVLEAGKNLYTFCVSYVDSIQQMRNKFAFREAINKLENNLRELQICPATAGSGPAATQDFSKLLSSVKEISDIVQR", "sequence of UniProt Q15349 (whole entry, looked up)": "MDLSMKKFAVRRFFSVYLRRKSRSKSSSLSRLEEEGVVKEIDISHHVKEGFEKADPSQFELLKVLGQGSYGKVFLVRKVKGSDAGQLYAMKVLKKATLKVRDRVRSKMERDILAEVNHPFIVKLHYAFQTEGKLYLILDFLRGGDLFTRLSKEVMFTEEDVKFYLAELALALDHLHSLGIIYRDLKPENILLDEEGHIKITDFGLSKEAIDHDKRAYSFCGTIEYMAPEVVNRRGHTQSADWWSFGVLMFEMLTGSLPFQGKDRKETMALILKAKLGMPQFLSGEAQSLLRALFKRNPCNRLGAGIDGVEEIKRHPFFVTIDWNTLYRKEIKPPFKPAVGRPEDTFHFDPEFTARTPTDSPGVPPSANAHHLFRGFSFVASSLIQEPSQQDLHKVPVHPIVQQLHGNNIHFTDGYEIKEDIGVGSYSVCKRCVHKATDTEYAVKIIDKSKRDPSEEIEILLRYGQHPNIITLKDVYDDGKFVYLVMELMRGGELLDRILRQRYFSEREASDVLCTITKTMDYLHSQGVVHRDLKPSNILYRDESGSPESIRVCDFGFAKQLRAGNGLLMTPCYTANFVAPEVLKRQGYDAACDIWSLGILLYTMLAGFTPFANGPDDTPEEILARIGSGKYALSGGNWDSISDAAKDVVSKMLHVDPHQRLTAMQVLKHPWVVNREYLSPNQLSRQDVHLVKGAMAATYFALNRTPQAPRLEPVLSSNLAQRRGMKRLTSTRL", "sequence of UniProt P19784 (whole entry, looked up)": "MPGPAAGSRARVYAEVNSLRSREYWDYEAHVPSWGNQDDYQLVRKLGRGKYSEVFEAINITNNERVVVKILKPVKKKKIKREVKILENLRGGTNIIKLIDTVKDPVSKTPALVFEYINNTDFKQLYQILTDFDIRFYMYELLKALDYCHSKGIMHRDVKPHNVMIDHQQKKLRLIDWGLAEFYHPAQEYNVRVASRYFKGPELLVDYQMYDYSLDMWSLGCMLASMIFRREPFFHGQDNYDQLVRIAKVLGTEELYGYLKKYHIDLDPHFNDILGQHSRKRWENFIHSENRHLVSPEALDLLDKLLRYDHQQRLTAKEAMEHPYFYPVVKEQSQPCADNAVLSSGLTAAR", "sequence of UniProt Q8NFD2 (whole entry, looked up)": "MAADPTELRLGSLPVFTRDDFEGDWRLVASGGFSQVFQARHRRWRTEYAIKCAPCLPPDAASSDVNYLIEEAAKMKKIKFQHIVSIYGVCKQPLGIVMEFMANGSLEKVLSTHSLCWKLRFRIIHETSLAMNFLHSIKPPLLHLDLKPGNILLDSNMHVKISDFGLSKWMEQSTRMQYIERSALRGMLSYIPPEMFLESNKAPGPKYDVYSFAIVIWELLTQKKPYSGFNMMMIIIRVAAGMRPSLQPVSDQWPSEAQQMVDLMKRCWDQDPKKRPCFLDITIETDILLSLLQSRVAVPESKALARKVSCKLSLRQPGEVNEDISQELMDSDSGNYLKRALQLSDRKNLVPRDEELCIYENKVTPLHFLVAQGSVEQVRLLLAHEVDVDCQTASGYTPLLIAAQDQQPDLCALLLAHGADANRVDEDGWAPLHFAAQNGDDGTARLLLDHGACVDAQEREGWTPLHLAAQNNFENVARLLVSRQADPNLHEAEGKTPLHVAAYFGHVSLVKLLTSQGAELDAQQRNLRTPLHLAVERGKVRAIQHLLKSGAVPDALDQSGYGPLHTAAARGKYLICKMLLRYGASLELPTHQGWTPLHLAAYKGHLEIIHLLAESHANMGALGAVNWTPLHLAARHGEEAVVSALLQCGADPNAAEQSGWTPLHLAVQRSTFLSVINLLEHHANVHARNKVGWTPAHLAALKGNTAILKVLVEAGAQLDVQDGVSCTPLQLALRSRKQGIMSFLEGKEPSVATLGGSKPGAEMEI"}
{"data": "Study 1", "Compound": "C=CC(=O)N1CCC([C@@H]2CCNc3c(C(N)=O)c(-c4ccc(Oc5ccccc5)cc4)nn32)CC1", "concentration": "1 µM"}
{"target": "BLK (Homo sapiens, UniProt P51451)", "assay": "enzyme activity, inhibitor", "inhibition [%]": 99}
{"target": "AKT3 (Homo sapiens, UniProt Q9Y243)", "assay": "enzyme activity, inhibitor", "inhibition [%]": 11}
{"target": "TAOK2 (Homo sapiens, UniProt Q9UL54)", "assay": "enzyme activity, inhibitor", "inhibition [%]": 26}
{"target": "Ribosomal protein S6 kinase alpha-4, C-terminal kinase domain (RPS6KA4, Homo sapiens, UniProt O75676)", "assay": "inhibitor", "inhibition [%]": 20}
{"target": "ANKK1 (Homo sapiens, UniProt Q8NFD2)", "assay": "cell-free assay", "inhibition [%]": 0}
{"target": "CDK11B (Homo sapiens, UniProt P21127)", "assay": "enzyme activity, inhibitor", "inhibition [%]": 27}
{"target": "GRK3 (Homo sapiens, UniProt P35626)", "assay": "enzyme activity, inhibitor", "inhibition [%]": 0}
{"target": "NEK7 (Homo sapiens, UniProt Q8TDX7)", "assay": "enzyme activity, inhibitor", "inhibition [%]": 9}
{"target": "CSNK2A2 (Homo sapiens, UniProt P19784)", "assay": "enzyme activity, inhibitor", "inhibition [%]": 3}
{"target": "CRK2 (Plasmodium falciparum, UniProt P61075)", "assay": "enzyme activity, inhibitor", "inhibition [%]": 0}
{"target": "Tyrosine-protein kinase ABL1, phosphorylated (ABL1, Homo sapiens, UniProt P00519)", "assay": "enzyme activity, inhibitor", "inhibition [%]": 0}
{"target": "HASPIN (Homo sapiens, UniProt Q8TF76)", "assay": "enzyme activity, inhibitor", "inhibition [%]": 7}
{"target": "SRPK1 (Homo sapiens, UniProt Q96SB4)", "assay": "enzyme activity, inhibitor", "inhibition [%]": 0}
{"target": "STK32C (Homo sapiens, UniProt Q86UX6)", "assay": "enzyme activity, inhibitor", "inhibition [%]": 2}
{"target": "MAPK13 (Homo sapiens, UniProt O15264)", "assay": "enzyme activity, inhibitor", "inhibition [%]": 0}
{"target": "PRKD3 (Homo sapiens, UniProt O94806)", "assay": "enzyme activity, inhibitor", "inhibition [%]": 31}
{"target": "Ribosomal protein S6 kinase alpha-2, kinase domain 2 (RPS6KA2, Homo sapiens, UniProt Q15349)", "assay": "inhibitor", "inhibition [%]": 14}
{"target": "CSNK1G1 (Homo sapiens, UniProt Q9HCP0)", "assay": "enzyme activity, inhibitor", "inhibition [%]": 0}
{"data": "Study 2", "cell line": "normal-adjacent organoid sample E", "method": "CellTiter-Glo", "concentration": "1 µM", "setting": "replicate mean", "relative to": "DMSO"}
{"SMILES": "O=C1c2ccc(Nc3ccc(F)cc3F)cc2CCc2ccc(OC[C@H](O)CO)cc21", "viability [%]": 131}
{"SMILES": "Cc1cn(-c2cc(NC(=O)c3ccc4c(c3)CN(c3cncnc3)C[C@@H]4C)cc(C(F)(F)F)c2)cn1", "viability [%]": 160}
{"SMILES": "C[C@H](c1ccc(F)cc1)N(Cc1cccc(C(=O)O)c1)C(=O)c1cnc2ccccc2c1", "viability [%]": 112}
{"SMILES": "CO[C@H]1CC[C@H](CNc2ccc(S(=O)(=O)NC(=O)c3ccc(N4CCN(CC5=C(c6ccc(Cl)cc6)CC(C)(C)CC5)CC4)cc3Oc3cnc4[nH]ccc4c3)cc2[N+](=O)[O-])CC1", "viability [%]": 73.4}
{"SMILES": "CNC(=O)c1cc(C(=O)N[C@H]2[C@@H]3COC[C@@H]32)cc2c1O[C@@H](CF)[C@@H]2c1ccccc1", "viability [%]": 113}
{"SMILES": "C[C@@H](NC(=O)Nc1cc2[nH]ncc2c(CO)n1)c1ccccc1", "viability [%]": 62.5}
{"SMILES": "CN1CCN(c2cnc3c(C4CCN(C(=O)c5ccc(OC(F)(F)F)cc5N)CC4)ncnc3c2)CC1", "viability [%]": 96.3}
{"SMILES": "COc1cc(-c2cn(C3CCc4c(F)cccc4N(CC(F)(F)F)C3=O)nn2)ccc1-n1cnc(C)c1 (centres unmarked)", "viability [%]": 122}
{"SMILES": "Cc1cc(-n2nc(Cc3cc(F)cc(C(F)(F)F)c3)nc2C)ccc1C(N)=O", "viability [%]": 104}
{"SMILES": "O=C(NNS(=O)(=O)c1ccccc1F)c1cc(F)cc(-c2ccccn2)c1", "viability [%]": 95.9}
{"SMILES": "CNc1nc(-c2ccc3c(N)n[nH]c3c2)cc(N2C[C@@H](C(=O)NC3CCCCC3)CC[C@H]2C)n1", "viability [%]": 100}
{"SMILES": "CCC(=O)N[C@H]1CC[C@@H](C(=O)N(C)c2ccc(-c3nc4ccccc4o3)cc2)C1", "viability [%]": 95.1}
{"SMILES": "COc1cc(-c2cn(C3CCc4ccccc4N(CC(F)(F)F)C3=O)nn2)ccc1-n1ccc(C)n1 (centres unmarked)", "viability [%]": 103}
{"SMILES": "NS(=O)(=O)c1cc(NC(=O)Cc2ccccc2)ccc1Oc1cccc(Cl)c1", "viability [%]": 119}
{"SMILES": "Nc1nc(NCc2ccccc2)nc(-c2ccccc2CO)n1", "viability [%]": 128}
{"SMILES": "Cn1cncc1[C@@](O)(COc1ccc(C#N)cc1-c1ccc(OC(F)(F)F)cc1)c1ccc(C#N)cc1", "viability [%]": 86.5}
{"SMILES": "C[C@@H](c1cccc(C#N)c1)n1cc(Cl)cc(C(N)=O)c1=N", "viability [%]": 122}
{"SMILES": "Nc1nc(NCc2ccccc2)nc(-c2cccc(CO)c2)n1", "viability [%]": 120}
{"SMILES": "CN1CCN(Cc2ccc(Nc3ncc(Cl)c(Nc4ccccc4S(=O)(=O)N(C)C)n3)cc2)CC1", "viability [%]": 7.2}
{"SMILES": "C[C@H](c1ccc(F)cc1)N(Cc1ccc(Cl)c(C(=O)O)c1)C(=O)c1cnc2ccccc2c1", "viability [%]": 91.6}
{"SMILES": "N#CC1(c2ccccn2)CCN(Cc2cc(C(=O)O)c(=O)n3ccccc23)CC1", "viability [%]": 94.5}
{"SMILES": "C[C@@]1(Cc2ccc(C#N)cc2)C(=O)N(c2cc(Cl)cc(Cl)c2)c2ncc(C(=O)NC3(c4nc(C5CCC5)no4)CC3)n21", "viability [%]": 111}
{"data": "Study 3", "Structure (SMILES)": "Cc1ccc(NC(=O)c2ccnc(C(F)(F)F)c2)cc1-c1cc(OCCO)nc(N2CCOCC2)c1", "concentration": "1 µM"}
{"target": "SNRK (Homo sapiens, UniProt Q9NRH2)", "assay": "binding", "remaining binding": "100%"}
{"target": "SRMS (Homo sapiens, UniProt Q9H3Y6)", "assay": "binding, competition with immobilised ligand", "remaining binding": "92%"}
{"target": "PRKG1 (Homo sapiens, UniProt Q13976)", "assay": "binding", "remaining binding": "100%"}
{"target": "TESK1 (Homo sapiens, UniProt Q15569)", "assay": "binding, competition with immobilised ligand", "remaining binding": "100%"}
{"target": "PDPK1 (Homo sapiens, UniProt O15530)", "assay": "binding", "remaining binding": "100%"}
{"target": "PIP4K2C (Homo sapiens, UniProt Q8TBX8)", "assay": "binding", "remaining binding": "100%"}
{"target": "STK26 (Homo sapiens, UniProt Q9P289)", "assay": "binding, competition with immobilised ligand", "remaining binding": "85%"}
{"target": "ROS1 (Homo sapiens, UniProt P08922)", "assay": "binding", "remaining binding": "77%"}
{"target": "ABL1 (Homo sapiens, UniProt P00519, F317L)", "remaining binding": "100%"}
{"target": "FLT3 (Homo sapiens, UniProt P36888)", "assay": "binding, competition with immobilised ligand", "remaining binding": "97%"}
{"target": "Ribosomal protein S6 kinase alpha-4, N-terminal kinase domain (RPS6KA4, Homo sapiens, UniProt O75676)", "assay": "binding, competition with immobilised ligand", "remaining binding": "100%"}
{"target": "SBK3 (Homo sapiens, UniProt P0C264)", "assay": "binding", "remaining binding": "100%"}
{"target": "Aurora kinase A (AURKA, Homo sapiens, UniProt O14965)", "assay": "binding, competition with immobilised ligand", "remaining binding": "98%"}
{"target": "PRKACB (Homo sapiens, UniProt P22694)", "assay": "binding, competition with immobilised ligand", "remaining binding": "100%"}
{"target": "EGFR (Homo sapiens, UniProt P00533, L858R)", "assay": "binding", "remaining binding": "78%"}
{"data": "Study 4", "target": "Tyrosine-protein kinase JAK2 (JAK2, Homo sapiens, UniProt O60674)", "effect on": "enzyme activity", "action": "inhibitor", "concentration": "0.5 µM", "relative to": "control", "sequence of UniProt O60674 (whole entry, looked up)": "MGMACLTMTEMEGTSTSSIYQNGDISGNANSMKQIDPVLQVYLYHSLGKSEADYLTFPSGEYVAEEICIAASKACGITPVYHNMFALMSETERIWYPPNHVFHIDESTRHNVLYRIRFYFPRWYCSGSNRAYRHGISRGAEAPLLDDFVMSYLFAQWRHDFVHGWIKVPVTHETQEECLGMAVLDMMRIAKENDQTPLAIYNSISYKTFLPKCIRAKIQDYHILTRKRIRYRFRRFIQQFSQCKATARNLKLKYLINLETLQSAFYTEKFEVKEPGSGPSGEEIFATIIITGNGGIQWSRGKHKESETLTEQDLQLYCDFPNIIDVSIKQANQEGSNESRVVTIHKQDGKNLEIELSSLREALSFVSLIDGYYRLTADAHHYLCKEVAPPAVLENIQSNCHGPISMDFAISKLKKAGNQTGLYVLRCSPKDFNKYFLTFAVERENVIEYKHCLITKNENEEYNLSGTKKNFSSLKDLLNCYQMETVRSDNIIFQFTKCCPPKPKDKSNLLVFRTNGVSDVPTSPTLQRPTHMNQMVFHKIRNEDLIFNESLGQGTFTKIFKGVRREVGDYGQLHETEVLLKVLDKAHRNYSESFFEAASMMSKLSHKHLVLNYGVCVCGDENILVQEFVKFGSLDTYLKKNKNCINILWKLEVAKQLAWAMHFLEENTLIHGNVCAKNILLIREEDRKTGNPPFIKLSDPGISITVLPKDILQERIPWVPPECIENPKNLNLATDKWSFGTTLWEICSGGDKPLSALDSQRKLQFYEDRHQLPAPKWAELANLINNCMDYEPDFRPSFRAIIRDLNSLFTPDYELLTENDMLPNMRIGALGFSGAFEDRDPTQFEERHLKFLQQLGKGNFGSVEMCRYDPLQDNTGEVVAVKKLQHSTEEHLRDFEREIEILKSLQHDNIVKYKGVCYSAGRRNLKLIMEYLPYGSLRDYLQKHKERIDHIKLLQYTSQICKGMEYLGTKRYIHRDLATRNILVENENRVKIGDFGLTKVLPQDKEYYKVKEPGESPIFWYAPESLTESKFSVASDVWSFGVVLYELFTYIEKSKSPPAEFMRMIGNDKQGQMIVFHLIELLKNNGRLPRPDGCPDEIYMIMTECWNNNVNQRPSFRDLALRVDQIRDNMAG"}
{"Structure (SMILES)": "Clc1ccc(Nc2nnc(Cc3ccncc3)c3ccccc23)cc1", "remaining activity [%]": 106}
{"Structure (SMILES)": "C[C@@H](N)[C@H]1CC[C@H](C(=O)Nc2ccncc2)CC1", "remaining activity [%]": 97.7}
{"Structure (SMILES)": "c1cc(-c2cnn3cc(-c4ccc(OCCN5CCCCC5)cc4)cnc23)ccn1", "remaining activity [%]": 103}
{"Structure (SMILES)": "O=C(c1ccccc1)c1ccc(N2CCOCC2)cc1O", "remaining activity [%]": 94.1}
{"Structure (SMILES)": "COc1cc2c(N3CCN(C(=O)Nc4ccc(OC(C)C)cc4)CC3)ncnc2cc1OCCCN1CCCCC1", "remaining activity [%]": 101}
{"Structure (SMILES)": "N#C/C(=C(/N)SC1C=CC=CC1)c1cccc(C(O)c2ccncc2)c1 (centres unmarked)", "remaining activity [%]": 99.7}
{"Structure (SMILES)": "CCCCc1c(-c2ccc(O)cc2)[nH]c2nccnc12", "remaining activity [%]": 77.8}
{"Structure (SMILES)": "O=C(O)/C=C/c1cc(Br)c(Br)c(Br)c1Br", "remaining activity [%]": 101}
{"Structure (SMILES)": "CC(C)N(CCC(=O)c1ccc2ccccc2c1)Cc1ccccc1", "remaining activity [%]": 97.5}
{"Structure (SMILES)": "NC(=O)c1ccc(-c2nc(-c3ccc4c(c3)OCCO4)c(-c3ccccn3)[nH]2)cc1", "remaining activity [%]": 103}
{"Structure (SMILES)": "Nc1nc(Nc2ccc(S(N)(=O)=O)cc2)nn1C(=S)Nc1c(F)cccc1F", "remaining activity [%]": 3.16}
{"Structure (SMILES)": "FC(F)(F)c1ccc(/C=C/c2nc(COc3ccc(CCCCn4ccnn4)cc3)co2)cc1", "remaining activity [%]": 98.9}
{"Structure (SMILES)": "O=c1c(-c2ccc(F)cc2)c(-c2ccncc2)[nH]n1-c1ccc(Cl)cc1", "remaining activity [%]": 95.1}
{"Structure (SMILES)": "CNc1cc2c(Nc3cccc(Br)c3)ncnc2cn1", "remaining activity [%]": 82.1}
{"Structure (SMILES)": "CCN(CC)CCCCN1c2ccccc2Oc2ccc(Cl)cc21", "remaining activity [%]": 104}
{"Structure (SMILES)": "O=Nc1c(-c2c(O)[nH]c3ccccc23)[nH]c2ccccc12", "remaining activity [%]": 84.6}
{"Structure (SMILES)": "O=C1NC(=O)/C(=C/c2ccc3c(c2)OC(F)(F)O3)S1", "remaining activity [%]": 92.9}
{"Structure (SMILES)": "CC(C)n1cnc2c(Nc3cccc(Cl)c3)nc(NCCO)nc21", "remaining activity [%]": 101}
{"Structure (SMILES)": "N#CC(c1ccnc(NCCc2cccnc2)n1)c1nc2ccccc2s1 (centres unmarked)", "remaining activity [%]": 106}
{"Structure (SMILES)": "COc1cc2c(Nc3ccc(Br)cc3F)ncnc2cc1OCC1CCN(C)CC1", "remaining activity [%]": 102}
{"Structure (SMILES)": "O=C1c2ccccc2-c2nc3nnnn3nc21", "remaining activity [%]": 82.6}
{"Structure (SMILES)": "NC(=O)c1cccc(-c2cc(Nc3ccc(OC(F)(F)F)cc3)ncn2)c1", "remaining activity [%]": 104}
{"note": "Repeated from above (study 3):"}
{"target": "PIP4K2C (Homo sapiens, UniProt Q8TBX8)", "assay": "binding", "remaining binding": "100%"}
{"target": "STK26 (Homo sapiens, UniProt Q9P289)", "assay": "binding, competition with immobilised ligand", "remaining binding": "85%"}
{"target": "ROS1 (Homo sapiens, UniProt P08922)", "assay": "binding", "remaining binding": "77%"}
{"target": "ABL1 (Homo sapiens, UniProt P00519, F317L)", "remaining binding": "100%"}
{"target": "FLT3 (Homo sapiens, UniProt P36888)", "assay": "binding, competition with immobilised ligand", "remaining binding": "97%"}
{"target": "Ribosomal protein S6 kinase alpha-4, N-terminal kinase domain (RPS6KA4, Homo sapiens, UniProt O75676)", "assay": "binding, competition with immobilised ligand", "remaining binding": "100%"}
{"target": "SBK3 (Homo sapiens, UniProt P0C264)", "assay": "binding", "remaining binding": "100%"}
{"target": "Aurora kinase A (AURKA, Homo sapiens, UniProt O14965)", "assay": "binding, competition with immobilised ligand", "remaining binding": "98%"}
{"target": "PRKACB (Homo sapiens, UniProt P22694)", "assay": "binding, competition with immobilised ligand", "remaining binding": "100%"}
{"target": "EGFR (Homo sapiens, UniProt P00533, L858R)", "assay": "binding", "remaining binding": "78%"}
